Assay results collected from several papers.
Parts stem from different laboratories: compare values within a part only.
UniProt P42336, sequence (whole entry, unmodified, looked up): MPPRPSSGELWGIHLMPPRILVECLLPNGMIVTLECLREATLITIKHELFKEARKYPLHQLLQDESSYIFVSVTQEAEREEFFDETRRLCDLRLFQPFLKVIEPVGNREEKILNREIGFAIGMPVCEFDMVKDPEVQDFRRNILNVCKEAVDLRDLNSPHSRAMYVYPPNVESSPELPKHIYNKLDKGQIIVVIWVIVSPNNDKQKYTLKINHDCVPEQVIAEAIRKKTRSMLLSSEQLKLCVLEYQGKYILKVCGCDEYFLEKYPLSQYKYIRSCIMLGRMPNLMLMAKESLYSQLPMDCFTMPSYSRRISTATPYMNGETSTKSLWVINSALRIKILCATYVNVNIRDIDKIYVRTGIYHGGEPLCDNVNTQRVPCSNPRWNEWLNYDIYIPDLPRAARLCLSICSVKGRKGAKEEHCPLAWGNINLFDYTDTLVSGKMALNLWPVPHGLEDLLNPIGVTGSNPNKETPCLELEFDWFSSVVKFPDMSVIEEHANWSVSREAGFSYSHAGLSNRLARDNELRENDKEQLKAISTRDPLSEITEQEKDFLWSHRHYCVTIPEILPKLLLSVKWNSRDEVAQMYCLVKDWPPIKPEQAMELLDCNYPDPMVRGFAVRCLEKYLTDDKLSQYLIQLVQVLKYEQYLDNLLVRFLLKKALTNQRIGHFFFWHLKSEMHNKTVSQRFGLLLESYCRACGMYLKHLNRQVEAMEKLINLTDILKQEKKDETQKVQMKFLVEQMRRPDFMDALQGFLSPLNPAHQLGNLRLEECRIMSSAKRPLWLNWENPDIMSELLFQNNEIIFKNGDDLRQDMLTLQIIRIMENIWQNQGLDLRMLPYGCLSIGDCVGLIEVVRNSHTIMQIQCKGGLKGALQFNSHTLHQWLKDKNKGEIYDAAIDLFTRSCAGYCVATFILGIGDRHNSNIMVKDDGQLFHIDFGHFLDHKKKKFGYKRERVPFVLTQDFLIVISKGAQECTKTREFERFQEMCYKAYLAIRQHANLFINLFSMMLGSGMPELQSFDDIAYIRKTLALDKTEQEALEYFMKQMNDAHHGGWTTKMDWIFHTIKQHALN
UniProt Q9H093, sequence (whole entry, looked up): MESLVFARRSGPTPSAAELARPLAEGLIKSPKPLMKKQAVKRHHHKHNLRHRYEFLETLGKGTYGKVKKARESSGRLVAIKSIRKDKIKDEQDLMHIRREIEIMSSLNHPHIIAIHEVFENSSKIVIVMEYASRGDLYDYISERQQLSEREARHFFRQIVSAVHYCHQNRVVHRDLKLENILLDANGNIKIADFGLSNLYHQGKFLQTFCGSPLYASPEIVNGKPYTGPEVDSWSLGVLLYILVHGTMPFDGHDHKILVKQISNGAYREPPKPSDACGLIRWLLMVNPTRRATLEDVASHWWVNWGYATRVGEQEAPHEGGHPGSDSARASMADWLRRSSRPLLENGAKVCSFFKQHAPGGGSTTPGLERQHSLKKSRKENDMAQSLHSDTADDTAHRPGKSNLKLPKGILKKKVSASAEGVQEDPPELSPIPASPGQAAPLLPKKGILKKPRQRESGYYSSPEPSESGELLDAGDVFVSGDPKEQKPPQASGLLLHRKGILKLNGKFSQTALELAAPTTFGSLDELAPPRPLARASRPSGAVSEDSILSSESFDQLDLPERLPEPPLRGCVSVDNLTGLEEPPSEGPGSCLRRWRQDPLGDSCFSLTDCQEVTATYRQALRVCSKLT
UniProt Q15831, sequence (whole entry, looked up): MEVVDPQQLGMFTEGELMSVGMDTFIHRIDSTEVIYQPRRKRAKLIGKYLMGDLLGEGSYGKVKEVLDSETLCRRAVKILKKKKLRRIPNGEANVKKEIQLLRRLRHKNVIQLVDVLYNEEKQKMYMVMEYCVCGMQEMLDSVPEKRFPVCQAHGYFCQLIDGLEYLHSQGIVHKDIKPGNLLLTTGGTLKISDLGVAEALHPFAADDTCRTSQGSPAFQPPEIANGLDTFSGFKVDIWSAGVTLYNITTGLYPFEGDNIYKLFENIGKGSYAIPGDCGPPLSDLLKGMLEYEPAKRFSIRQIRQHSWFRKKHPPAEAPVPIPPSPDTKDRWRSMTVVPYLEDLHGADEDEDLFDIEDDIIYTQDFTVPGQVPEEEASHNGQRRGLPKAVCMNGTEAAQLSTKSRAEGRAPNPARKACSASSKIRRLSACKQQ
UniProt P48736, sequence (whole entry, looked up): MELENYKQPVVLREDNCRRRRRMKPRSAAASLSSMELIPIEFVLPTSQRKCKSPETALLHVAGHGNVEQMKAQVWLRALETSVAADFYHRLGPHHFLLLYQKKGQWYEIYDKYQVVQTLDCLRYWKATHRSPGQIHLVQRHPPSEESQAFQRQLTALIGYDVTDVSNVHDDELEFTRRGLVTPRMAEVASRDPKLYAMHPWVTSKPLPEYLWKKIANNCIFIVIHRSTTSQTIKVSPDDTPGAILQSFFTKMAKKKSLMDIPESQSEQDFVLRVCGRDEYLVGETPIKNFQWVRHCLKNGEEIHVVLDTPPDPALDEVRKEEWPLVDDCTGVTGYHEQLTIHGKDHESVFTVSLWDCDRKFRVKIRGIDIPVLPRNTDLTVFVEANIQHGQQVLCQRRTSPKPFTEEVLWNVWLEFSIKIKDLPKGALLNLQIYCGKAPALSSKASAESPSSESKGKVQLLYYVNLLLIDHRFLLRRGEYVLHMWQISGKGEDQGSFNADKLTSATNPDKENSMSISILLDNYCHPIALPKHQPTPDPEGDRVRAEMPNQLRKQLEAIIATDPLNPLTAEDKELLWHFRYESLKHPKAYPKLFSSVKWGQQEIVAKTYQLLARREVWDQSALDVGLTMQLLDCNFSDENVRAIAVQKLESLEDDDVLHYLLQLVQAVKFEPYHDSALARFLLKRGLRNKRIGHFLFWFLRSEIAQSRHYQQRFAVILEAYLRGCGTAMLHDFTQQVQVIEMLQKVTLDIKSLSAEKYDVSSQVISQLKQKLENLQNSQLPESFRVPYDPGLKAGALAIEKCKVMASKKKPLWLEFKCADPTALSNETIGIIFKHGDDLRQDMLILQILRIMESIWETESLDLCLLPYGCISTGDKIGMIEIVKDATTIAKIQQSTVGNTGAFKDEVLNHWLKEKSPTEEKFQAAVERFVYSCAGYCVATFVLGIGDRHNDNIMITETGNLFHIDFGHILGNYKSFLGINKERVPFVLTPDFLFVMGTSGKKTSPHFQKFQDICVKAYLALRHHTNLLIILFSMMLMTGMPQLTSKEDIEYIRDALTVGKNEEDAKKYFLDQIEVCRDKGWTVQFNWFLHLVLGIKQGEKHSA
UniProt Q9P1W9, sequence (whole entry, looked up): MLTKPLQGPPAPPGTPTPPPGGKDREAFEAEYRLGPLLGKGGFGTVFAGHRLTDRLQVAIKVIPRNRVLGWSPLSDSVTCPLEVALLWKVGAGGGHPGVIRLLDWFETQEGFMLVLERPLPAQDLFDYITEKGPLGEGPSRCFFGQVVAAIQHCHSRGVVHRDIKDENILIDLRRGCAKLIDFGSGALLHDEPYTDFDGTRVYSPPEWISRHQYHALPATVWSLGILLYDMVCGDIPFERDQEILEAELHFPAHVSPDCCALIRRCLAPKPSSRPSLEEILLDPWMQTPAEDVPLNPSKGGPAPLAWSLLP
UniProt Q00535, sequence (whole entry, looked up): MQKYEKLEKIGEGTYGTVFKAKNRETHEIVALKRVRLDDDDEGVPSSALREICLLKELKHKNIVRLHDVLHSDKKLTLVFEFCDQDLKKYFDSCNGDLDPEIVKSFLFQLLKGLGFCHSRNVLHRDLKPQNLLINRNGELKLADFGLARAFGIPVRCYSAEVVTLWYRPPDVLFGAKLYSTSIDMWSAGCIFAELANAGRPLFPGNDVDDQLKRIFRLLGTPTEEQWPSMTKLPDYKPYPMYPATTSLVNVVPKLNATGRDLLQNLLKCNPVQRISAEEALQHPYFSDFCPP
UniProt P07948, sequence (whole entry, looked up): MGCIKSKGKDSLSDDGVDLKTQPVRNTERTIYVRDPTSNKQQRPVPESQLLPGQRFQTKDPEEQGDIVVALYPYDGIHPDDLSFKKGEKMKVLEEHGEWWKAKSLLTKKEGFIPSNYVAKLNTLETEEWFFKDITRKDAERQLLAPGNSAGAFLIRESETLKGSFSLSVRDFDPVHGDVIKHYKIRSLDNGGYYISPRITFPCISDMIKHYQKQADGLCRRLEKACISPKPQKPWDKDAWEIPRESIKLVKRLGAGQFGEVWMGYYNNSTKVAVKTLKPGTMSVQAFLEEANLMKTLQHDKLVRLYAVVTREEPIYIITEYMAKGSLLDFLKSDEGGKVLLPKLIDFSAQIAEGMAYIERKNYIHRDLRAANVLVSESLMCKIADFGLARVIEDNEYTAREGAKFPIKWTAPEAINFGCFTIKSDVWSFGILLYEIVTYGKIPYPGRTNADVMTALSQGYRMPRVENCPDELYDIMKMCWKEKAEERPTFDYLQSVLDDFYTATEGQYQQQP

Study 1 — cell line: A-375; concentration: 100 µM; time: 18 h
Structure (SMILES) | viability
COc1cc2nc(N3CCN(C(=O)c4ccco4)CC3)nc(N)c2cc1OC | 9.99%
C[C@]12C=CC(=O)N[C@@H]1CC[C@@H]1[C@@H]2CC[C@]2(C)[C@@H](C(=O)Nc3cc(C(F)(F)F)ccc3C(F)(F)F)CC[C@@H]12 | 73.9%
CCC(=O)OCC(=O)[C@@]1(OC(=O)CC)[C@@H](C)C[C@H]2[C@@H]3CCC4=CC(=O)C=C[C@]4(C)[C@@]3(F)[C@@H](O)C[C@@]21C | 71.1%
CC(=O)N(O)CCCCCNC(=O)CCC(=O)N(O)CCCCCNC(=O)CCC(=O)N(O)CCCCCN | 98.6%
O=c1ccc2cc3ccoc3cc2o1 | 104%
CC1(C)O[C@@H]2C[C@H]3[C@@H]4C[C@H](F)C5=CC(=O)C=C[C@]5(C)[C@@]4(F)[C@@H](O)C[C@]3(C)[C@]2(C(=O)CO)O1 | 96.6%
CCOC(=O)[C@H](CCc1ccccc1)N[C@H]1CCc2ccccc2N(CC(=O)O)C1=O | 101%
C[n+]1ccccc1/C=N/O | 100%
CCN(CC)CCc1nc(-c2ccccc2)no1 | 70%
O=C(O)CCCN1CCC(O[C@@H](c2ccc(Cl)cc2)c2ccccn2)CC1 | 101%
O=c1[nH]c(=O)n([C@H]2C[C@H](O)[C@@H](CO)O2)cc1F | 42.6%
Nc1ccc(S(=O)(=O)Nc2ccccn2)cc1 | 93.5%
OCCc1ccccc1 | 97.9%

Study 2 — method: competition with immobilised ligand; concentration: 1 µM
SMILES: C[C@H](c1ccc(F)cc1)N(Cc1cccc(C(=O)O)c1)C(=O)c1cnc2ccccc2c1
target | assay | remaining binding
NUAK2 (Homo sapiens, UniProt Q9H093) | cell-free assay | 100%
CDK8 (Homo sapiens, UniProt P49336) | cell-free assay | 100%
NIM1K (Homo sapiens, UniProt Q8IY84) | cell-free assay | 79%
MAP4K4 (Homo sapiens, UniProt O95819) | cell-free assay | 96%
PIK3CA (Homo sapiens, UniProt P42336, C420R) | cell-free assay | 100%
MAP3K9 (Homo sapiens, UniProt P80192) | cell-free assay | 100%
CASK (Homo sapiens, UniProt O14936) | cell-free assay | 86%
PIK3CG (Homo sapiens, UniProt P48736) | cell-free assay | 100%
STK25 (Homo sapiens, UniProt O00506) | cell-free assay | 100%
IRAK4 (Homo sapiens, UniProt Q9NWZ3) | cell-free assay | 95%
PIM2 (Homo sapiens, UniProt Q9P1W9) | cell-free assay | 100%
PRKD1 (Homo sapiens, UniProt Q15139) | cell-free assay | 100%
MAPK10 (Homo sapiens, UniProt P53779) | cell-free assay | 82%
MST1R (Homo sapiens, UniProt Q04912) | cell-free assay | 100%
MAP3K13 (Homo sapiens, UniProt O43283) | cell-free assay | 75%
CLK3 (Homo sapiens, UniProt P49761) | cell-free assay | 100%
EPHA6 (Homo sapiens, UniProt Q9UF33) | cell-free assay | 100%
PIK3CA (Homo sapiens, UniProt P42336) | cell-free assay | 100%
PAK3 (Homo sapiens, UniProt O75914) | cell-free assay | 96%
Tyrosine-protein kinase ABL1, phosphorylated (ABL1, Homo sapiens, UniProt P00519, E255K) | binding | 100%
CDK3 (Homo sapiens, UniProt Q00526) | cell-free assay | 98%
Tyrosine-protein kinase JAK1, JH1 (JAK1, Homo sapiens, UniProt P23458) | cell-free assay | 100%
IRAK1 (Homo sapiens, UniProt P51617) | cell-free assay | 89%
BTK (Homo sapiens, UniProt Q06187) | cell-free assay | 95%
PAK6 (Homo sapiens, UniProt Q9NQU5) | cell-free assay | 100%

Study 3 — SMILES: CCN1/C(=C/C(C)=O)Sc2ccc(OC)cc21; read-out: enzyme activity; action: inhibitor; concentration: 0.5 µM; baseline: control
target | remaining activity
Protein kinase C beta type, isoform beta-I (PRKCB, Homo sapiens, UniProt P05771) | 99.4%
MAPK9 (Homo sapiens, UniProt P45984) | 101%
Cyclin-dependent kinase 4, with cyclin D1 (CDK4, Homo sapiens, UniProt P11802) | 92.1%
Cyclin-dependent kinase 5, with p25 (CDK5, Homo sapiens, UniProt Q00535) | 87.9%
CAMK2D (Homo sapiens, UniProt Q13557) | 92.2%
IKBKB (Homo sapiens, UniProt O14920) | 102%
cGMP-dependent protein kinase 1, isoform beta (PRKG1, Homo sapiens, UniProt Q13976) | 87%
TGFBR1 (Homo sapiens, UniProt P36897) | 94.2%
STK10 (Homo sapiens, UniProt O94804) | 96.8%
IKBKE (Homo sapiens, UniProt Q14164) | 99%
NEK2 (Homo sapiens, UniProt P51955) | 97.6%
DAPK1 (Homo sapiens, UniProt P53355) | 109%
STK39 (Homo sapiens, UniProt Q9UEW8) | 95.9%
OXSR1 (Homo sapiens, UniProt O95747) | 93.5%
CHEK2 (Homo sapiens, UniProt O96017) | 104%
STK11 (Homo sapiens, UniProt Q15831) | 86.6%
PRKCA (Homo sapiens, UniProt P17252) | 68.7%
PRKACA (Homo sapiens, UniProt P17612) | 98%
TGFBR2 (Homo sapiens, UniProt P37173) | 78.5%
DAPK2 (Homo sapiens, UniProt Q9UIK4) | 90.3%
MAP3K3 (Homo sapiens, UniProt Q99759) | 114%
GRK3 (Homo sapiens, UniProt P35626) | 82.9%
CAMKK2 (Homo sapiens, UniProt Q96RR4) | 95.5%
Tyrosine-protein kinase Lyn, isoform B (LYN, Homo sapiens, UniProt P07948) | 94.4%

Study 4 — host: mouse; medium: microsomes or S9; concentration: 2 µM; time: 0.5 h
SMILES | remaining compound [%]
COc1ccccc1Nc1nc2nccc(-c3ccc4c(c3)OCO4)c2c(=O)[nH]1 | 26.2
COc1nc(OCC(=O)c2ccccc2)nc(OC)c1Br | 0.386
CCOC(=O)c1c2ccc(N(CC)CC)cc2n2c(Cl)cccc12 | 67.8
Cn1c(=O)c2c(nc(C(=O)N3CC[C@H](NC(=O)OC(C)(C)C)C3)n2Cc2ccccc2)n(C)c1=O | 1.32
CCS(=O)(=O)N1CC(=O)N(Cc2ccc(OC(C)C)cc2)C(C)(C(=O)NCc2ccccc2)C1 (stereo not drawn) | 3.92
COc1ccc(Cl)c(OC)c1C1=NOC(C)(C(=O)Nc2ccccn2)C1 (stereo not drawn) | 0.754
O=[N+]([O-])c1ccc(CNC2=NS(=O)(=O)c3cc(Cl)ccc32)cc1 | 27.7
COc1ncnc(N)c1CNCCC1=CCOCC1 | 10.6
CCCn1nc(C)c(-c2cncn2Cc2cccc(OC(C)C)c2)c1C | 1.43
COc1ccccc1-n1c(=O)n(Cc2cccc(C)c2)c(=O)c2c(C)cc(C)nc21 | 0.0696

For quick reference, copied from above (study 1):
Structure (SMILES) | viability
CCC(=O)OCC(=O)[C@@]1(OC(=O)CC)[C@@H](C)C[C@H]2[C@@H]3CCC4=CC(=O)C=C[C@]4(C)[C@@]3(F)[C@@H](O)C[C@@]21C | 71.1%
CC(=O)N(O)CCCCCNC(=O)CCC(=O)N(O)CCCCCNC(=O)CCC(=O)N(O)CCCCCN | 98.6%
O=c1ccc2cc3ccoc3cc2o1 | 104%
CC1(C)O[C@@H]2C[C@H]3[C@@H]4C[C@H](F)C5=CC(=O)C=C[C@]5(C)[C@@]4(F)[C@@H](O)C[C@]3(C)[C@]2(C(=O)CO)O1 | 96.6%
CCOC(=O)[C@H](CCc1ccccc1)N[C@H]1CCc2ccccc2N(CC(=O)O)C1=O | 101%
C[n+]1ccccc1/C=N/O | 100%
CCN(CC)CCc1nc(-c2ccccc2)no1 | 70%
O=C(O)CCCN1CCC(O[C@@H](c2ccc(Cl)cc2)c2ccccn2)CC1 | 101%
O=c1[nH]c(=O)n([C@H]2C[C@H](O)[C@@H](CO)O2)cc1F | 42.6%
Nc1ccc(S(=O)(=O)Nc2ccccn2)cc1 | 93.5%
OCCc1ccccc1 | 97.9%
